{"data": "Experimental data of several laboratories", "organism": "Pseudomonas aeruginosa"}
{"Structure (SMILES)": "C#CCOc1ccc(CN[C@@]2(C)C[C@H](O[C@H]3[C@H](Oc4c5cc6cc4Oc4ccc(cc4Cl)[C@@H](O)[C@@H](NC(=O)[C@@H](CC(C)C)NC)C(=O)N[C@@H](CC(N)=O)C(=O)N[C@H]6C(=O)N[C@H]4C(=O)N[C@H](C(=O)N[C@H](C(=O)N[C@@H](CCCNC(=N)N)C(N)=O)c6cc(O)cc(O)c6-c6cc4ccc6O)[C@H](O)c4ccc(c(Cl)c4)O5)O[C@H](CO)[C@@H](O)[C@@H]3O)O[C@@H](C)[C@H]2O)cc1OC", "test": "broth microdilution", "system": "ATCC 27853, cation-adjusted Mueller-Hinton broth", "conditions": "18 to 20 h, 37 °C, 0.002% polysorbate 80", "MIC": "> 128 µg/mL"}
{"Structure (SMILES)": "CC[C@H](C)[C@H](NC(=O)[C@@H](CCCNC(=N)N)NC(=O)[C@H](CCCNC(=N)N)NC(=O)[C@@H]1CCCN1C(=O)[C@@H]1CCCN1C(=O)[C@H](CCCNC(=N)N)NC(=O)[C@@H]1CCCN1C(=O)[C@H](CCCNC(=N)N)NC(=O)[C@@H]1CCCN1C(=O)[C@H](CC(C)C)NC(=O)[C@H](Cc1cc(I)c(O)c(I)c1)NC(=O)[C@@H]1CCCN1C(=O)[C@@H]1CCCN1C(=O)[C@H](CCCCN)NC(=O)[C@H](CC(=O)O)NC(=O)[C@@H](N)C(C)C)C(=O)N[C@@H](Cc1ccc(O)cc1)C(=O)N[C@@H](CC(N)=O)C(=O)N[C@H](CCCNC(=N)N)C(N)=O", "test": "broth microdilution", "system": "DSM 1117", "conditions": "18 h, 37 °C, 25% MHB2", "MIC": "> 128 µg/mL"}
{"Structure (SMILES)": "CCCCCCCC(=O)N[C@@H](CCN)C(=O)N[C@H](C(=O)N[C@@H](CCN)C(=O)N[C@H]1CCNC(=O)[C@H]([C@@H](C)O)NC(=O)[C@H](CCN)NC(=O)[C@H](CCN)NC(=O)[C@H](CCCc2ccccc2)NC(=O)[C@@H](Cc2ccccc2)NC(=O)[C@H](CCN)NC1=O)[C@@H](C)O", "test": "broth microdilution", "system": "PAO1, colistin-susceptible", "MIC": "< 0.125 µg/mL"}
{"Structure (SMILES)": "CC[C@H](C)[C@H](NC(=O)[C@H](Cc1c[nH]c2ccccc12)NC(=O)[C@H](Cc1ccc(O)cc1)NC(=O)[C@H](CCCCN)NC(=O)[C@H](CC(C)C)NC(=O)[C@@H](N)CO)C(=O)N[C@@H](CCCNC(=N)N)C(=O)N[C@@H](Cc1ccc(O)cc1)C(=O)N[C@@H](CCCCN)C(=O)N[C@@H](CCCNC(=N)N)C(=O)N[C@@H](CCC(N)=O)C(=O)NCC(=O)N[C@@H](C)C(=O)N[C@@H](C)C(=O)N[C@@H](CCCNC(=N)N)C(=O)N[C@@H](Cc1ccccc1)C(N)=O", "test": "broth dilution", "system": "ATCC 27853", "MIC": "6.3 µM"}
{"Structure (SMILES)": "CC(=O)N[C@H](Cc1c(F)c(F)c(F)c(F)c1F)C(=O)N[C@@H](CCN)C(=O)N[C@H](C(=O)N[C@@H](CCN)C(=O)N[C@H]1CCNC(=O)[C@H]([C@@H](C)O)NC(=O)[C@H](CCN)NC(=O)[C@H](CCN)NC(=O)[C@H](CC(C)C)NC(=O)[C@@H](Cc2ccccc2)NC(=O)[C@H](CCN)NC1=O)[C@@H](C)O", "test": "broth microdilution", "system": "PAO1, colistin-susceptible", "MIC": "0.25 to 0.5 µg/mL"}
{"Structure (SMILES)": "CC(C)C[C@H](NC(=O)[C@H](CC(C)C)NC(=O)[C@H](CCCCN)NC(=O)[C@H](Cc1ccccc1)NC(=O)[C@@H](NC(=O)[C@H](CCCNC(=N)N)NC(=O)[C@H](CCCCN)NC(=O)[C@H](Cc1c[nH]c2ccccc12)NC(=O)[C@@H](NC(=O)[C@@H](N)CCCNC(=N)N)C(C)C)C(C)C)C(=O)N[C@@H](CCCCN)C(=O)N[C@@H](CCCNC(=N)N)C(=O)N[C@@H](Cc1ccc(O)cc1)C(=O)N[C@@H](Cc1c[nH]c2ccccc12)C(=O)N[C@@H](CCCNC(=N)N)C(N)=O", "test": "broth microdilution", "system": "10145", "MIC": "15 µg/mL"}
{"Structure (SMILES)": "CC[C@H](C)[C@H](NC(=O)[C@H](CC(C)C)NC(=O)[C@H](CCCNC(=N)N)NC(=O)CNC(=O)CNC(=O)[C@H](CCCCN)NC(=O)[C@H](CCCNC(=N)N)NC(=O)[C@H](CC(C)C)NC(=O)[C@H](CC(C)C)NC(=O)[C@H](CCCNC(=N)N)NC(=O)[C@@H](NC(=O)[C@H](CC(C)C)NC(=O)[C@@H](N)CO)[C@@H](C)O)C(=O)NCC(=O)N[C@@H](Cc1c[nH]c2ccccc12)C(=O)N[C@@H](CCCNC(=N)N)C(=O)N[C@@H](Cc1c[nH]c2ccccc12)C(=O)N[C@@H](CCC(=O)O)C(=O)N[C@@H](CCCCN)C(=O)N[C@H](C(=O)N[C@@H](CCCNC(=N)N)C(=O)N[C@@H](CC(N)=O)C(=O)N[C@@H](Cc1c[nH]c2ccccc12)C(=O)N[C@H](C(=O)N[C@@H](CCCNC(=N)N)C(=O)N[C@@H](CCCNC(=N)N)C(=O)N[C@H](C(=O)N[C@H](C(=O)N[C@@H](CCC(=O)O)C(=O)N[C@@H](CCCCN)C(=O)N[C@@H](CCCNC(=N)N)C(=O)N[C@@H](CCCCN)C(=O)N1CCC[C@H]1C(=O)N[C@@H](CC(N)=O)C(=O)N[C@@H](CCCCN)C(=O)O)[C@@H](C)CC)[C@@H](C)CC)[C@@H](C)CC)[C@@H](C)O", "test": "broth microdilution", "system": "ATCC 27853, Mueller-Hinton broth", "conditions": "16 to 20 h, 37 °C", "MIC": "8.79 µg/mL"}
{"Structure (SMILES)": "CC[C@H](C)[C@H](NC(=O)[C@@H](CCCNC(=N)N)NC(=O)[C@H](CCCNC(=N)N)NC(=O)[C@@H]1CCCN1C(=O)[C@@H]1CCCN1C(=O)[C@H](CCCNC(=N)N)NC(=O)[C@H](Cc1c[nH]c2ccccc12)NC(=O)[C@H](CCCNC(=N)N)NC(=O)[C@@H]1CCCN1C(=O)[C@H](CC(C)C)NC(=O)[C@H](Cc1ccc(O)cc1)NC(=O)[C@@H]1CCCN1C(=O)[C@@H]1CCCN1C(=O)[C@H](CCCCN)NC(=O)[C@H](CC(=O)O)NC(=O)[C@@H](N)C(C)C)C(=O)N[C@@H](Cc1ccc(O)cc1)C(=O)N[C@@H](CC(N)=O)C(=O)N[C@H](CCCNC(=N)N)C(N)=O", "test": "broth microdilution", "system": "DSM 1117", "conditions": "18 h, 37 °C, 25% MHB2", "MIC": "> 128 µg/mL"}
{"Structure (SMILES)": "CN[C@H](CC(C)C)C(=O)N[C@H]1C(=O)N[C@@H](CC(N)=O)C(=O)N[C@H]2C(=O)N[C@H]3C(=O)N[C@H](C(=O)N[C@H](C(=O)O)c4cc(O)cc(O)c4-c4cc3ccc4O)[C@H](O)c3ccc(c(Cl)c3)Oc3cc2cc(c3O[C@@H]2O[C@H](CO)[C@@H](O)[C@H](O)[C@H]2O[C@H]2C[C@](C)(NCc3ccc(OCc4cn(CC(=O)N[C@H](C(=O)N[C@@H](CCN)C(=O)N[C@H]5CCNC(=O)[C@H]([C@@H](C)O)NC(=O)[C@H](CCN)NC(=O)[C@H](CCN)NC(=O)[C@H](CC(C)C)NC(=O)[C@@H](CC(C)C)NC(=O)[C@H](CCN)NC5=O)[C@@H](C)O)nn4)c(OC)c3)[C@H](O)[C@H](C)O2)Oc2ccc(cc2Cl)[C@H]1O", "test": "broth microdilution", "system": "ATCC 25922, cation-adjusted Mueller-Hinton broth", "MIC": "6 µM"}
{"Structure (SMILES)": "CC[C@H](C)[C@H](NC(=O)[C@H](CCCCN)NC(=O)[C@H](CC(N)=O)NC(=O)CNC(=O)[C@@H](NC(=O)[C@H](C)NC(=O)[C@H](CCCNC(=N)N)NC(=O)[C@H](CC(C)C)NC(=O)[C@H](CCCCN)NC(=O)[C@H](CCCCN)NC(=O)[C@H](CCCCN)NC(=O)[C@H](C)NC(=O)[C@H](CCCCN)NC(=O)[C@@H]1CSSC[C@H](NC(=O)[C@H](CCCNC(=N)N)NC(=O)CN)C(=O)N[C@@H](CC(N)=O)C(=O)N[C@@H](CC(C)C)C(=O)N[C@@H](CC(C)C)C(=O)N1)C(C)C)C(=O)N[C@@H](CCCCN)C(=O)N[C@@H](CCC(=O)O)C(=O)N[C@H](C(=O)N[C@@H](CCCCN)C(=O)N[C@@H](CC(N)=O)C(=O)N[C@H](C(=O)N[C@H](C(=O)N[C@@H](Cc1ccccc1)C(=O)N[C@@H](CC(N)=O)C(=O)N[C@@H](CCCNC(=N)N)C(=O)O)C(C)C)C(C)C)[C@@H](C)CC", "test": "broth dilution", "system": "ATCC 27853", "MIC": "100 µM"}
{"Structure (SMILES)": "CN[C@H](CC(C)C)C(=O)N[C@H]1C(=O)N[C@@H](CC(N)=O)C(=O)N[C@H]2C(=O)N[C@H]3C(=O)N[C@H](C(=O)N[C@H](C(=O)NCc4cn(CC(=O)N[C@H](C(=O)N[C@@H](CCN)C(=O)N[C@H]5CCNC(=O)[C@H]([C@@H](C)O)NC(=O)[C@H](CCN)NC(=O)[C@H](CCN)NC(=O)[C@H](CC(C)C)NC(=O)[C@@H](CC(C)C)NC(=O)[C@H](CCN)NC5=O)[C@@H](C)O)nn4)c4cc(O)cc(O)c4-c4cc3ccc4O)[C@H](O)c3ccc(c(Cl)c3)Oc3cc2cc(c3O[C@@H]2O[C@H](CO)[C@@H](O)[C@H](O)[C@H]2O[C@H]2C[C@](C)(N)[C@H](O)[C@H](C)O2)Oc2ccc(cc2Cl)[C@H]1O", "test": "broth microdilution", "system": "ATCC 17978, cation-adjusted Mueller-Hinton broth", "MIC": "51 µM"}
{"Structure (SMILES)": "CN[C@@H]1[C@H](O)[C@H](NC)[C@H]2O[C@]3(O)[C@H](O[C@@H]2[C@H]1O)O[C@H](C)C[C@H]3NC(=O)Cc1cc(Cl)ccn1", "test": "microbial growth, broth dilution", "system": "PAO1", "MIC": "> 200 µg/mL"}
{"note": "For quick reference, copied from above:"}
{"Structure (SMILES)": "CCCCCCCC(=O)N[C@@H](CCN)C(=O)N[C@H](C(=O)N[C@@H](CCN)C(=O)N[C@H]1CCNC(=O)[C@H]([C@@H](C)O)NC(=O)[C@H](CCN)NC(=O)[C@H](CCN)NC(=O)[C@H](CCCc2ccccc2)NC(=O)[C@@H](Cc2ccccc2)NC(=O)[C@H](CCN)NC1=O)[C@@H](C)O", "test": "broth microdilution", "system": "PAO1, colistin-susceptible", "MIC": "< 0.125 µg/mL"}
